Published values collected from several papers.
Compare with care: the assays were run in different laboratories. Numbers after ± are the reported error.

Compound | assay | system | setting | Tmax
CC(=O)O.NC(=O)c1cnc(N[C@@H]2CCCC[C@@H]2N)nc1Nc1cccc(-n2nccn2)c1 |  | human, plasma | oral, 11 mg once daily | 1 h
Cc1noc(C)c1-c1cc(C(O)(c2ccccn2)c2ccccn2)c2nc(C3CC3)[nH]c2c1 |  | human patients, plasma | oral, 4 mg, cycle 1 day 8, monotherapy | 0.9 h
O=C1CC[C@H](N2Cc3cc(N4CCN(CC5CCN(c6ccc([C@@H]7c8ccc(O)cc8CC[C@@H]7c7ccccc7)cc6)CC5)CC4)ccc3C2=O)C(=O)N1 |  | human, plasma | oral, 200 mg, together with: dabigatran etexilate 75 mg | 3.5 h
CCCCCCCOc1ccc(CCC(N)(CO)CO)cc1C(F)(F)F.Cl |  | healthy human males, plasma | oral, 0.25 mg, day 1, median | 12 h
CCOc1c([C@H](C)n2nc(C)c3c(N)ncnc32)cc(Cl)c(F)c1[C@@H]1CNC(=O)C1 |  | human patients, Hodgkin lymphoma, plasma | oral, 30 mg, day 15, monotherapy, median | 0.8 h
N#Cc1cc(NC(=O)[C@H]2c3ccccc3C(=O)N(CC(F)(F)F)[C@@H]2c2cccnc2)ccc1F |  | human, plasma | oral, 300 mg, median | 1.6 h
CCn1cc(C(=O)N2CCOCC2)c(=O)c2cc(NC3Cc4ccccc4C3)cnc21 |  | human, fed | oral suspension, 300 mg single dose, median | 6 h
Cc1cc(-c2nnc(N)nc2-c2ccc(F)cc2)cc(Cl)n1 |  | human patients, plasma | oral, 75 mg nanosuspension once daily, multiple doses, median | 0.5 h
Cc1cn(C(=O)c2c(-c3c(Cl)cc(Cl)cc3Cl)noc2C(C)(C)F)c2cccc(/C=C/C(=O)O)c12 |  | human patients | 125 mg bid, cycle 8 day 1 | 2.03 h
COc1cc(-c2cnc3cc(OCCN4CCOCC4)ccn23)cc2c1C(=O)N(CC(F)(F)F)CC2 | LC-MS | human, plasma | oral, 350 mg, day 5, together with: methotrexate 7.5 mg | 0.5 h
CN1CCC(COc2cnc(-c3cccc(Cn4nc(-c5cccc(C#N)c5)ccc4=O)c3)nc2)CC1 |  | human | 500 mg, alone, median | 8.02 h
Cc1nc(-c2ccc(OCC(C)C)c(C#N)c2)sc1C(=O)O |  | human | oral, 20 mg once daily, together with: verinurad 0 mg | 3 h
COc1nnc2ccc(N3CCC(c4ccc(OCCN5CCN(C)C(=O)[C@H]5C)cc4)CC3)nn12 |  | human, plasma | oral, 2 mg once daily, multiple dose, monotherapy | 0.98 h
CN(CC#N)C(=O)C[C@H](Nc1nc2ccccc2[nH]1)c1cccc(C(F)(F)F)c1 |  | human | intravenous infusion, 3 mg/kg, 1 mg/mL formulation | 0.43 ± 0.09 h
Cc1cccc(F)c1N1CCC(N2Cc3cn(CC(C)(F)F)nc3N(Cc3ccccc3C(F)(F)F)C2=O)CC1 |  | human healthy subjects, plasma | oral, 100 mg, single dose, fed, median | 2 h
C[C@H](NC(=O)/C(C#N)=C/c1cccc(Br)n1)c1ccccc1 | LC-MS/MS | human, plasma | oral, 1 mg/kg, cycle 1 day 8 | 2 h
CNC(=O)c1ccc(-c2cnc3ncc(Cc4ccc5ncccc5c4)n3n2)cc1F |  | human moderate hepatic impairment NCI | oral, 200 mg single dose, median | 1 h
Cn1c(=O)oc2ccc(-c3ccc(C[C@@H](C#N)NC(=O)[C@@H]4CNCCCO4)cc3)cc21 |  | human, moderate renal impairment, plasma | oral, 25 mg single dose, median | 1 h
Cc1cc(-c2nccc3c2ccn3CC(=O)Nc2ccc(-c3cnccn3)cn2)ccn1 |  | human, plasma | oral, 40 mg single dose, median | 1 h
O=C(O)C[C@H](O)C[C@H](O)/C=C/c1c(C2CC2)nc2ccccc2c1-c1ccc(F)cc1 |  | OATP1B1/1B3 humanized mouse, plasma | oral, 5 mg/kg, together with: silymarin 500 mg/kg oral | 0.5 h
N[C@](CO)(CCc1ccc(Sc2cccc(OCc3ccccc3)c2)cc1Cl)COP(=O)(O)O |  | human, fed, blood | 3 mg, median, alone | 12 h
COc1ncnn2ccc(-c3cnc4nc(C)n(Cc5nnc([C@@H](C)F)o5)c4c3)c12 |  | human, plasma | oral, 105 mg, cycle 1 day 1 | 3 h
C[C@H](Oc1ccc(Br)cc1-c1ccon1)C(=O)O | LC-MS/MS, non-compartmental | human, plasma | 600 mg once daily, day 10, multiple ascending dose, median | 2.5 h
CC(C)(C(=O)NC1C2CC3CC1CC(C(N)=O)(C3)C2)N1CCN(c2ccc(C(F)(F)F)cn2)CC1 (centres unmarked) |  | human, plasma | 2 mg once daily, 5 days, median | 2.6 h
CCS(=O)(=O)Nc1ccc(Oc2ccc(F)cc2F)c(-c2cn(C)c(=O)c3[nH]ccc23)c1 |  | human, plasma | oral, 2 mg, cycle 1 day 8, median | 4 h
COc1ccc2c3c1O[C@H]1C[C@@H](OC(=O)c4ccccc4)C=C[C@@]31CCN(C)C2 |  | human, plasma | intranasal, 5.5 mg single dose | 0.25 h
CC(C)[C@H](N)C(=O)NCCCS(=O)(=O)O | median | human, plasma | oral, 256.5 mg once daily, day 1, fed, capsule | 1 h

Compound | assay | system | setting | Tmax
C#C[C@]1(O)CC[C@H]2[C@@H]3CCC4=CC(=NO)CC[C@@H]4[C@H]3CC[C@@]21CC (mixture of isomers) |  | human |  | 3 h
CN(C)C(=O)c1cc2cnc(Nc3ccc(N4CCNCC4)cn3)nc2n1C1CCCC1 |  | human, end-stage renal disease, plasma | oral, 400 mg, single dose, median | 2.98 h
CO[C@H]1/C=C/O[C@@]2(C)Oc3c(C)c(O)c4c(O)c(c(/C=N/N5CCN(C)CC5)c(O)c4c3C2=O)NC(=O)/C(C)=C\C=C\[C@H](C)[C@H](O)[C@@H](C)[C@@H](O)[C@@H](C)[C@H](OC(C)=O)[C@@H]1C |  | healthy human subjects, plasma | oral, compound alone once daily | 3.5 h
C#C[C@]1(COP(=O)(O)OP(=O)(O)O)O[C@@H](n2cnc3c(N)nc(F)nc32)C[C@@H]1O | measured: islatravir triphosphate | human, PBMC | oral, 400 mg single dose | 6 h
NC[C@@]1(CC(=O)O)[C@@H]2CC[C@H]3C[C@@H]2[C@@H]1C3 |  | human, severe renal impairment, plasma | oral, 20 mg single dose, median | 1.47 h
COc1cc2ncnc(Nc3ccc(F)c(Cl)c3)c2cc1NC(=O)/C=C/CN1CCCCC1 |  | human, plasma | oral, 30 mg single dose | 6 h
CC1(COc2ccc3c(c2)ncn3-c2ccc3cccc(N4CCC(N)CC4)c3n2)COC1 |  | human patients, recurrent/progressive HGG or DIPG, serum | oral, 100 mg/m^2, day 28, median | 1.5 h
CC(C)NC(=O)COc1cccc(-c2nc(Nc3ccc4[nH]ncc4c3)c3ccccc3n2)c1 |  | human, male, fed, plasma | oral, 200 mg, day 3, median | ~2 h
CC(F)(F)c1cc(F)ccc1-c1sc2cc(O)ccc2c1Oc1ccc(/C=C/C(=O)O)cc1 |  | human, serum | oral, 600 mg once daily, cycle 1 day 28, fasted, median | 2.1 h
NC(=O)c1[nH]cnc1N |  | human patients, plasma | IV infusion over 1 h, 1000 mg/m^2 DTIC, cycle 2 day 1, staggered with co-drug | 1.95 h
CC1=C(c2cccc(O)c2)[C@H](c2ccc(OCCN3CC(CF)C3)cc2)Oc2ccc(O)cc21 |  | human | oral, 600 mg single dose, median | 3 h
COc1ccc([C@@H](O)c2cc(-c3ncnc4cc(N5CCOCC5)ccc34)c(F)cc2Cl)nn1 |  | human, plasma | oral, 150 mg once daily, single dose, median | 0.93 h
C#C[C@]1(CO)O[C@@H](n2cnc3c(N)nc(F)nc32)C[C@@H]1O |  | human, plasma | oral, 400 mg, single dose, median | 0.5 h
COc1ncc(-c2nc3c(n2C(C)C)[C@H](c2ccc(Cl)cc2)N(c2cc(Cl)cn(C)c2=O)C3=O)c(OC)n1 | LC-MS/MS, noncompartmental | human, plasma | oral, 200 mg, C1D1, high-dose, median | 2.1 h
CCN(CC)Cc1cc(Nc2ccnc3cc(Cl)ccc23)ccc1O |  | human, both sexes, plasma | oral, dose not given, fixed-dose combination | 0.83 h
Cc1cc(C)c(CNC(=O)c2cc(Cl)c3c(c2C)O[C@@](C)([C@H]2CC[C@H](N(C)C)CC2)O3)c(=O)[nH]1 | median | healthy male humans, plasma | oral, 25 mg, day 1, alone, fluconazole group | 3 h
CCCn1cc(C)c2c(=O)[nH]c(-c3cc(S(=O)(=O)N4CCN(CC)CC4)ccc3OCC)nc21 |  | human, plasma | oral, 100 mg, median, together with: placebo beverage | 0.75 h
CC(C)c1nc(N(C)S(C)(=O)=O)nc(-c2ccc(F)cc2)c1/C=C/[C@@H](O)C[C@@H](O)CC(=O)O |  | healthy human subjects, plasma | oral, 10 mg, median, together with: none | 3.01 h
Cc1cc(/C=C/C#N)cc(C)c1Nc1ccnc(Nc2ccc(C#N)cc2)n1 |  | human, normal renal function, plasma | oral, steady state, fixed-dose combination | 8 h
COc1cc(C(=O)NC2CCN(C)CC2)c(F)cc1Nc1ncc(C(F)(F)F)c(Oc2cccc3c2C(=O)N(C)C3)n1 |  | human patients, plasma | oral, 50 mg single dose, median | 1 h
CO[C@@H]1[C@H](OC(=O)N2CC(CCN3CCOCC3)C2)CC[C@]2(CO2)[C@H]1[C@@]1(C)O[C@@H]1CC=C(C)C |  | humans, plasma | subcutaneous, 0.2 mg twice weekly, fifth dose | 0.5 h
C#C[C@]1(COP(=O)(O)O)O[C@@H](n2cnc3c(N)nc(F)nc32)C[C@@H]1O | measured: islatravir triphosphate | human, PBMC | oral, 400 mg single dose | 6 h
Cn1nnc2c(C(N)=O)ncn2c1=O |  | human patients, plasma | oral, 20 mg/m2, day 5, dose level DL3, median, together with: talazoparib 600 µg/m2 | 1 h
Fc1ccc([C@@H]2CCNC[C@H]2COc2ccc3c(c2)OCO3)cc1 |  | human, CYP2D6 poor metabolizers | oral, 20 mg, steady state, geometric mean | 4.1 h
Cn1ncnc1[C@H]1c2n[nH]c(=O)c3cc(F)cc(c23)N[C@@H]1c1ccc(F)cc1 |  | human patients, plasma | oral, 600 µg/m2 twice daily, day 1, monotherapy, dose level DL3, median | 1 h
Cc1ncnc2c1ccn2[C@@H]1C[C@H](Oc2cc(C(F)F)c(F)c3c2CNCC3)[C@@H](O)[C@H]1O |  | human, plasma | 4 mg once daily, multiple dose, median | 1.9 h

For quick reference, copied from above:
Compound | assay | system | setting | Tmax
CCS(=O)(=O)Nc1ccc(Oc2ccc(F)cc2F)c(-c2cn(C)c(=O)c3[nH]ccc23)c1 |  | human, plasma | oral, 2 mg, cycle 1 day 8, median | 4 h
CC1=C(c2cccc(O)c2)[C@H](c2ccc(OCCN3CC(CF)C3)cc2)Oc2ccc(O)cc21 |  | human | oral, 600 mg single dose, median | 3 h
CN(CC#N)C(=O)C[C@H](Nc1nc2ccccc2[nH]1)c1cccc(C(F)(F)F)c1 |  | human | intravenous infusion, 3 mg/kg, 1 mg/mL formulation | 0.43 ± 0.09 h
CC(C)[C@H](N)C(=O)NCCCS(=O)(=O)O | median | human, plasma | oral, 256.5 mg once daily, day 1, fed, capsule | 1 h
Cc1cc(/C=C/C#N)cc(C)c1Nc1ccnc(Nc2ccc(C#N)cc2)n1 |  | human, normal renal function, plasma | oral, steady state, fixed-dose combination | 8 h
CO[C@@H]1[C@H](OC(=O)N2CC(CCN3CCOCC3)C2)CC[C@]2(CO2)[C@H]1[C@@]1(C)O[C@@H]1CC=C(C)C |  | humans, plasma | subcutaneous, 0.2 mg twice weekly, fifth dose | 0.5 h
